Assay results from different studies.
Every numbered part comes from another study and shows a few of its results, in no order. Changes are numbered by the printed parent chain.

Block 1 — method: RNA Bind-n-Seq; form: RNA; sample: in vitro; tested at: not given; relative to: input RNA pool; reading: higher = stronger binding
Target: RING finger protein unkempt homolog, zinc fingers 1-6, GST-SBP tag (UNK, Homo sapiens, UniProt Q9C0B0, residues 30-357)
UniProt Q9C0B0, sequence (30-357, looked up): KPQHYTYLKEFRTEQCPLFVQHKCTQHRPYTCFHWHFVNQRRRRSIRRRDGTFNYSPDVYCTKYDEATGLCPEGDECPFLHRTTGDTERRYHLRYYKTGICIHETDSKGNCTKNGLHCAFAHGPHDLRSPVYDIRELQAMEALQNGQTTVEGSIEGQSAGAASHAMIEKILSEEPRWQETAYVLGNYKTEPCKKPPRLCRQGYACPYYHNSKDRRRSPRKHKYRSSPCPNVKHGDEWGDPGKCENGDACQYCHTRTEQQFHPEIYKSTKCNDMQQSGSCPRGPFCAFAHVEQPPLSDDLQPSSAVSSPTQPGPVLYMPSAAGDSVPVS
Notes: RNA with constant flanks, human and mouse sites, ends assumed
Constant ends, left off below: GGGAGUUCUACAGUCCGACGAUC … CAACAGAGGAUUGAGCAUCA
Oligonucleotide | bound/input enrichment [ratio]
CACUGCUGUGGUCGCCGGUCGGCCGAGGGGCCGCGAUACUGGUUGCCCGCGGUGUAAGCAGAAUUCGACGUGUAUCGCUGCCGUCAAGAUGGAGGGGCCUUUGUCCGUGUUCGGUGACCG | 0.109
CUUCUCAUGACCAACUGUAUCAAGAAUGAUCUUAAUCAUAGCACGCAGUUUGUGCAGGGGCUAGCACUUUGUACCCUCGGCUGCAUGGGCUCCUCGGAGAUGUGCAGAGAUCUUGCGGGA | 0.242
UACGGGAAGGAUUUCAAUGAUAUCCGCCAGGACUUUCUACCCUGGAAGUCACUUGCAAGCAUAGUCCAGUUUUAUUACAUGUGGAAAACCACAGACCGGUAUAUUCAGCAGAAAAGAUUG | 0.319
AUUCUGUGGGCCACUCUCCCCAACGUUCUGACACUUCUGCAGUCUGAUCAGUGGCGAUGCUAGAUUAUAAUUUCAAACUGUGAAGAAUAAUGGUCUUGUCAUUUGCUCAAUGUGGGGUUA | 0.278
CCCGCGCCGCCUCCUCCCACCCUGAGCAGAGCCACCGAGGAUGAUAAACACCCAGGACAGUAGUAUUUUGCCGUUGAGUAAGUGUCCCCAGCUCCAGUGCUGCAGGCACAUUGUUCCAGG | 0.208
CAAAAUGCUUCAAGUGAUAACCAAGGAAUUCAAUUAAGUGCAGUUCAAGCUGCUAGGAAGCUUUUGUCCAGUGAUCGAAAUCCACCAAUUGAUGACUUAAUAAAAUCUGGAAUAUUGCCC | 0.345
UUAUCAAGGAAACAGAAAGAAGAAUUAUGGCAAAGACUGAAGGACUUACUAACAGAAACAUUGUUGGAAAGCCCUGUGGAUAGGUGGCAGACAGUGGAAGUCGAGGGUGCAGACGAUAUG | 0.435
GAGGAAUGUAAUUCCCUGAGUGAUGUGUUAGAUGCAUUUUCAAAAGCGCCCACAUUUCCUAGUAGCAACUAUUUCACAGCAAUGUGGACAAUUGCCAAAAGACUGUCUGAUGACCAGAAG | 0.276
AAGCCCUGAUGUCAGUGUGUGUAACUGACCUCUGGCCUGGCCUGCACAGAGAAGCCCUAUAAUCACAGGUCUGUGGUGGCCCCGAAAUGGGGGGCCUGCUAGUCAGGAGGAUGCUGUGCA | 0.193
UUGGUGUCUAGAGCUCACCAGCUAGUGAUGGAGGGAUAUAACUGGUGCCAUGACCGGAAUGUAGUAACGAUUUUCAGUGCUCCAAACUAUUGUUAUCGUUGUGGUAACCAAGCUGCAAUC | 1.17
CCAAUUACGGGGCCUGAGUAUGCAACCCCAAUCAUCAUGGACAUGUCAGGGCACCCCACAACUUCAGUUGGUCAGCCCUCCACAUCCACUUUCAAGGCUACGGGGAACCAACCUCCCCCA | 0.116

Block 2 — method: RNA Bind-n-Seq; form: RNA; sample: in vitro; tested at: 365 nM; relative to: no-protein control; reading: higher = stronger binding
Target: RNA binding protein fox-1 homolog 2, RRM domain, GST-SBP tag (RBFOX2, Homo sapiens, UniProt O43251-10, residues 100-194)
Notes: natural RNA segment, single round, ends assumed
Constant ends, left off below: GGGAGUUCUACAGUCCGACGAUC … UGGAAUUCUCGGGUGCCAA
Target sequence (chain): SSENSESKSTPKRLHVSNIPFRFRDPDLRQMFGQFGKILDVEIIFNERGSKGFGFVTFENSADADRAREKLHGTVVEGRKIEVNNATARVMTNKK
Oligonucleotide | RBNS enrichment (R)
AUAAAGAUUUUAAAUAUUUCUUGGUUUACUUUUGUAAUUAUAUACACAACAAAUGUAUUAAUAACUACCUUGUUAAACACCUUUUAAUAGCACAAGGUUUUUAUAUUUGC | 0.677
AGCAAGGAUCCAGACGAAGUGGAAACAGAGAGCAGGGGCCCUCCCACCACCUCUGACCUCCUUGCCCCAGACCUGCUGGAGCAAGGGGACUGGAGCCUGUCCCAGAACAA | 0.377
AUUGGGGGACACGGUGGCCACUCGCGGUCUGUGUCAUGACACUUCCCAUUCACAUCAUUGGCCUGCGUUGCUGGGGCUUUGAACCACCACCCCGUACUUUGUUUUGCCUG | 0.821
AUUCUAUUAAGAUACAAUAGCUAAAGUUGGGGAAUAACUUCAGGUAAAAACUGCAAGUCUUGAAGAUUUUUGGCAUUCUUUUAAGUAUUUAAACUUAAUCUUUAUAGCUG | 0.397
UGUUUCAUGGCAACACUGGAUAAUGGCUUUGUGAAAUUUAAAAAAUUUUUGUAGCGACUGUAAACAGAAAUGCCAAAUUGAUGGUUAAUUGUUGCUGCUUCAAAAAUAAG | 0.49
CUACAACCAGCUGGCACUGACUGCUCGACUUUUCCGGCCACGGCUCAUCAUAGCUGGCACCAGCGCCUAUGCUCGCCUCAUUGACUACGCCCGCAUGAGAGAGGUGUGUG | 8.01
AAAACCACCUGUAGGAUACUGCAUUAAGUCAGCAUCUCAGAAACAGUGGUGUGAGUAACUGAGUCAAAUUGUCAAGUACUUUGGAUAUACAUAGUGUCGAGCUUUAGAUU | 0.451
AAUGUCACAUGACAGAUGCCAUGAAGAAGUCAACCGAUAUAGCUUGGAUCUGUGAACCCUGUACUGCGAGAAUCACAUAGUUCCAUAUAAGUUGUCCUUAGUCUCUUGUG | 0.314
UGCCUGGACAGAUGGCUUGUCCCAAGGCCAGGACACACACUUUAAAAUCCAACAUUCACCUAAGCAAGUAAUUCUUAAAGAUCUUACAGAAACGCAGAGUCAAUCAGGUU | 0.376
GCCAAGCCCCCCUGACCCUCUCUCCCCACUACCACCUUCUUCCUGAGCUGGGGGCACCAGGGAGAAUCAGAGAUGCUGGGGAUGCCAGAGCAAGACUCAAAGAGGCAGAG | 0.413
UAGAUGAAUAGUUGAGGCACAUCCUUCAGAGAAGAGGGAGGGGCUGCUUGGAAAGAUGGCUCUCAGCAAAAUCUGUUUGUCUUACACGUCUCUCAGGGAAAAAACAUGCA | 14
CCCUUAUGCCUCUUCCAUGGGAACAAAUACUGUGCAGAUGUUUGUAAGUUAAACAUAAGACACAGGGGCUGUUGCUUUUGAACAGAACCCUAUAUUACUCUCCUGGGAUC | 0.721

Block 3 — method: DHFR PCA, deep sequencing; sample: yeast; together with: (+)-ABA 0.39 µM; relative to: wild-type fitted maximum; reading: higher = stronger binding
Target: ABI1, truncated, D143A, DHFR fusion (Arabidopsis thaliana)
Notes: methotrexate growth selection, single substitutions
Parent: PYL1, truncated, DHFR fusion (Arabidopsis thaliana); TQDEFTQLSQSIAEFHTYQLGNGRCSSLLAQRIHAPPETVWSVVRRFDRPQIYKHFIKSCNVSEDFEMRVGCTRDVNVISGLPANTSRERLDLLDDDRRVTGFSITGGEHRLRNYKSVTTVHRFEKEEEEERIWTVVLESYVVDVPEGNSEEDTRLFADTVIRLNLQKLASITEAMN; partner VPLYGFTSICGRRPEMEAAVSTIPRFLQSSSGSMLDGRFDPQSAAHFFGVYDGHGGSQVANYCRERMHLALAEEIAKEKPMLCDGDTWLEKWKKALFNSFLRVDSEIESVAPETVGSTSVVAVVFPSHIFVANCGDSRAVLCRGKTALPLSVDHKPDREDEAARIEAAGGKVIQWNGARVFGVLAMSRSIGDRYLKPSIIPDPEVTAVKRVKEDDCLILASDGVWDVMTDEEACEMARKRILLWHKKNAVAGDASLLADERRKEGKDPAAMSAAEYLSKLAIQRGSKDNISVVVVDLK
Substitution | relative binding score [%]
A170E | 2.43
L166V | 3.6
F124D | 28.6
E127D | 53.9
E129W | 18.5
G71M | -9.09
R98H | 5.48
Q19N | 47.7
R123S | 61.3
I33P | -1.86
N61P | -10.5
S26I | -3.61
S171M | 39.1
K116P | -16.2
T39D | 25.2
Y53R | -4.32

Block 4 — target: CCND3, cyclin fold, Cln2 fusion (human); method: yeast growth competition, sequencing; sample: yeast; notes: weak parent motif; relative to: not given; reading: higher = stronger binding
Parent: PKN2 docking peptide (human); DSTVTKLDFDLEP
Substitution | normalised enrichment score
K6A | -0.152
V4A | -0.408
L11A | -0.167
D1A | -0.208
T5A | -0.358
T3A | -0.197

Block 5 — method: universal PBM; form: double-stranded DNA, one strand shown; sample: in vitro; tested at: 600 nM; reading: higher = stronger binding
Target: Sal-like protein 4, full length isoform A (SALL4, Homo sapiens, UniProt Q9UJQ4, residues 1-1053)
UniProt Q9UJQ4, sequence (whole entry, looked up): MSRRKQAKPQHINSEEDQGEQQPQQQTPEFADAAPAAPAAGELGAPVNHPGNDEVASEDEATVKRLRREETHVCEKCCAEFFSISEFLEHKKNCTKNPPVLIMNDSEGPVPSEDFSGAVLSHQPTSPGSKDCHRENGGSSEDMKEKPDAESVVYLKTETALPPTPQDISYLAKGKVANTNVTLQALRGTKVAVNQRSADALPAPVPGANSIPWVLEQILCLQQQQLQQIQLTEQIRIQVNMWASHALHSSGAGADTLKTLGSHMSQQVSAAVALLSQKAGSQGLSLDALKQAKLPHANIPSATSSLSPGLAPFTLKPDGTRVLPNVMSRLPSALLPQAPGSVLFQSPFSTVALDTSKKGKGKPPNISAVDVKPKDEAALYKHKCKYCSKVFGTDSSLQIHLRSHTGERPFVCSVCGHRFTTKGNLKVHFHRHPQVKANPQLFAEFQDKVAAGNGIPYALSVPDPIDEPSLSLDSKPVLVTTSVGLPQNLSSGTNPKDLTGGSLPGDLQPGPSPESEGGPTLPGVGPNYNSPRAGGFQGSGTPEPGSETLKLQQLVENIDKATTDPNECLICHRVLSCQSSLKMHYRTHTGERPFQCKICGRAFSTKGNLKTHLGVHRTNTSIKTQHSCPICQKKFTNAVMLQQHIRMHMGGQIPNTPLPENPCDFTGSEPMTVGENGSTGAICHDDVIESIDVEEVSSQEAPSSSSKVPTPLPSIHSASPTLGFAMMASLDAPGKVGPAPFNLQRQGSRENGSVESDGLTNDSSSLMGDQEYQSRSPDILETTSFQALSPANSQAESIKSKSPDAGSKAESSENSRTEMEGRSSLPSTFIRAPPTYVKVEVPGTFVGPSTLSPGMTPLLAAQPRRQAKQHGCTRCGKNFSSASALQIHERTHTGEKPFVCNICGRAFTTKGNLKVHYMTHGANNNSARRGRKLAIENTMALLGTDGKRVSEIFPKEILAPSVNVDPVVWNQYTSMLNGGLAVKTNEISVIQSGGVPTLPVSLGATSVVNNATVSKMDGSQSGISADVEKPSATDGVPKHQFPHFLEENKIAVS
Notes: 8-mer, flanks averaged, mean of replicates
Oligonucleotide | E-score
GCGGTGTA | -0.0772
ATCCACAC | -0.137
GAATCAGA | 0.0041
ACATCGGC | -0.127
AGGTAGTC | -0.0902
TGATAAAA | 0.315
ATTCTCGG | 0.0687
CTTGCCTC | -0.142
ATCGGTGA | 0.0395
CCGGTTAA | -0.187
CGAATCCA | -0.118
CCGTCGGC | -0.369
CAGACAAC | -0.0477
CCGCCACC | -0.263
GTCTGTGA | -0.0248
AACTGTGT | 0.0544
AGAAGTGG | -0.0621
ATTCCGTC | 0.0644
CCACCTGA | -0.0377
CCGCTCAG | -0.284
CCCCGCAA | -0.0811
CATAGCGG | -0.159
AGATATCT | 0.212
CCCAAGGA | -0.225
AAACCTGT | 0.135

Single results of other studies
Molecule | target | test | test system | conditions | how to read | measurement | value
PhoQ, residues 284 288 289 292 302 303 TNASYF | PhoP, residues 12 14 15 18 19 LHSVQ (Escherichia coli, UniProt P23836) | Sort-seq, refers to: YFP reporter | E. coli | PhoQ-PhoP variant library, together with: 10 µM Mg2+ | relative to: high Mg2+ state, higher = stronger signaling | fold induction | 9.86

Excerpt of the above (block 2):
Oligonucleotide | RBNS enrichment (R)
CCCUUAUGCCUCUUCCAUGGGAACAAAUACUGUGCAGAUGUUUGUAAGUUAAACAUAAGACACAGGGGCUGUUGCUUUUGAACAGAACCCUAUAUUACUCUCCUGGGAUC | 0.721
AUUGGGGGACACGGUGGCCACUCGCGGUCUGUGUCAUGACACUUCCCAUUCACAUCAUUGGCCUGCGUUGCUGGGGCUUUGAACCACCACCCCGUACUUUGUUUUGCCUG | 0.821
AUAAAGAUUUUAAAUAUUUCUUGGUUUACUUUUGUAAUUAUAUACACAACAAAUGUAUUAAUAACUACCUUGUUAAACACCUUUUAAUAGCACAAGGUUUUUAUAUUUGC | 0.677
UGCCUGGACAGAUGGCUUGUCCCAAGGCCAGGACACACACUUUAAAAUCCAACAUUCACCUAAGCAAGUAAUUCUUAAAGAUCUUACAGAAACGCAGAGUCAAUCAGGUU | 0.376
AGCAAGGAUCCAGACGAAGUGGAAACAGAGAGCAGGGGCCCUCCCACCACCUCUGACCUCCUUGCCCCAGACCUGCUGGAGCAAGGGGACUGGAGCCUGUCCCAGAACAA | 0.377
UGUUUCAUGGCAACACUGGAUAAUGGCUUUGUGAAAUUUAAAAAAUUUUUGUAGCGACUGUAAACAGAAAUGCCAAAUUGAUGGUUAAUUGUUGCUGCUUCAAAAAUAAG | 0.49
AAAACCACCUGUAGGAUACUGCAUUAAGUCAGCAUCUCAGAAACAGUGGUGUGAGUAACUGAGUCAAAUUGUCAAGUACUUUGGAUAUACAUAGUGUCGAGCUUUAGAUU | 0.451
